Published values collected from several papers.
Compare with care: the assays were run in different laboratories. ± gives the spread as reported.
CASP3: Caspase-3 (CASP3, Homo sapiens, UniProt P42574)
FURIN: Furin (FURIN, Homo sapiens, UniProt P09958)

Chains of the proteins cited; added tags and fusions are not shown. Residues count along the entry.
UniProt P42574, whole entry, looked up: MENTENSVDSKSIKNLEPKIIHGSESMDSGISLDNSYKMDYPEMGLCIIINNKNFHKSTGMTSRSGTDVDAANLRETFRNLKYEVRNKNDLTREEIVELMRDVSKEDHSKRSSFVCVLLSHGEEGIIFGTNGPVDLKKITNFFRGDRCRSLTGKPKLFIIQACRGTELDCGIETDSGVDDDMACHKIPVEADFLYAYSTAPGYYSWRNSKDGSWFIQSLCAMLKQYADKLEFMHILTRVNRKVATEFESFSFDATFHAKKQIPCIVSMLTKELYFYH
UniProt P09958, whole entry, looked up: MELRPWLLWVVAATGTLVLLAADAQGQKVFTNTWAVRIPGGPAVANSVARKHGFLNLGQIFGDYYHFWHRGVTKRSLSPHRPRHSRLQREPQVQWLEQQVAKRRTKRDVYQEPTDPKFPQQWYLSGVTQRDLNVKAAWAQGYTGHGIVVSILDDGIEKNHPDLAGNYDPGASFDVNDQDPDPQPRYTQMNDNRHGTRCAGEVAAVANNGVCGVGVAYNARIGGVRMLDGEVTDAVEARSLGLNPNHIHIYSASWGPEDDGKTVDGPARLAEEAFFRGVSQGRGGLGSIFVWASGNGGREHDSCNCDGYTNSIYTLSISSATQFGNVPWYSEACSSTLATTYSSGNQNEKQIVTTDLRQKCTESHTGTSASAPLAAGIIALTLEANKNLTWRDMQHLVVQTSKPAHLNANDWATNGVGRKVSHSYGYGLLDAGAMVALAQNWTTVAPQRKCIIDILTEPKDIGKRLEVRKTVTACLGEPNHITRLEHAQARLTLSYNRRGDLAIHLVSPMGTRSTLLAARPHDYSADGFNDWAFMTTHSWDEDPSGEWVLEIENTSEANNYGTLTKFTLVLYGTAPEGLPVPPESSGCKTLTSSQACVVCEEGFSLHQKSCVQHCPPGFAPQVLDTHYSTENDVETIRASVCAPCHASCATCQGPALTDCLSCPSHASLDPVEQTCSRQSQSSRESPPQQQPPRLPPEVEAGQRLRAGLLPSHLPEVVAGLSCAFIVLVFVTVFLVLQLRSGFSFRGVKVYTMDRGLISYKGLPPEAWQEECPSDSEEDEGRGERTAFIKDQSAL
UniProt P09958, 108-715 limits assumed: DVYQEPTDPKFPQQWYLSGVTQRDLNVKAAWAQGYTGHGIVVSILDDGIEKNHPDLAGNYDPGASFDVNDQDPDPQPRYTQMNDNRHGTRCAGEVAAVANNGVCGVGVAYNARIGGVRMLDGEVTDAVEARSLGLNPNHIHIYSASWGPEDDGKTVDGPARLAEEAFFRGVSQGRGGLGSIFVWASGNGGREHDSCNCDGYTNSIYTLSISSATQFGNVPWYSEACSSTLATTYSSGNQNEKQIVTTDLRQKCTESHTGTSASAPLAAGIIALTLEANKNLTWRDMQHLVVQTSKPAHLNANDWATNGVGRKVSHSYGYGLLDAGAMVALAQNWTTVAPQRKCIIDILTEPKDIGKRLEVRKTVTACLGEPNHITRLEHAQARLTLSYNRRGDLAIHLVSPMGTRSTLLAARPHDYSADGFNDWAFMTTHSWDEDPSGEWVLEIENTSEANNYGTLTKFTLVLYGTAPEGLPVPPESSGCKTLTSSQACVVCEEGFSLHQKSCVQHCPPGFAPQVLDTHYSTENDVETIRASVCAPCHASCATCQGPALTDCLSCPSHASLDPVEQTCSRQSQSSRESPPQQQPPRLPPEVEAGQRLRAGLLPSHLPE
UniProt P37136, 32-574 limits assumed: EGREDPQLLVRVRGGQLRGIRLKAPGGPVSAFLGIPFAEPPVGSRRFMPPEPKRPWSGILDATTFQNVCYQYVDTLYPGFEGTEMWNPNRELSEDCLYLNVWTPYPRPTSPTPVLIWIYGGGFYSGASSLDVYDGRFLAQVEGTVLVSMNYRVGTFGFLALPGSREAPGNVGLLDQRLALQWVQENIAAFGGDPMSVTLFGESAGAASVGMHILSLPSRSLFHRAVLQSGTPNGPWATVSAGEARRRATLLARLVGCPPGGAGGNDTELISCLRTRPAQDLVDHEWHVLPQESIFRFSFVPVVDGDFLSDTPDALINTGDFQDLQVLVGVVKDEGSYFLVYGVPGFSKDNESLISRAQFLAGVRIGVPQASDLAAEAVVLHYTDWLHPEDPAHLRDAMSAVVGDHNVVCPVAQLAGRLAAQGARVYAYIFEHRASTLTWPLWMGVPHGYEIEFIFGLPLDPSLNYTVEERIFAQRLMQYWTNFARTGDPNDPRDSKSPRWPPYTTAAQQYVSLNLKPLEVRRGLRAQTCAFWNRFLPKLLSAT
UniProt O55242, whole entry: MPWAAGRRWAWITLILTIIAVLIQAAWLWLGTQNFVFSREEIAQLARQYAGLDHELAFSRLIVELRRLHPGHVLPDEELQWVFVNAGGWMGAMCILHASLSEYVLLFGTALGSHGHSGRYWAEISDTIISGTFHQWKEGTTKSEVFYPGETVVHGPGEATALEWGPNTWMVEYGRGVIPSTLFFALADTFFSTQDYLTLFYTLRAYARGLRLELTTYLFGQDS
UniProt P14867, 28-456 limits assumed: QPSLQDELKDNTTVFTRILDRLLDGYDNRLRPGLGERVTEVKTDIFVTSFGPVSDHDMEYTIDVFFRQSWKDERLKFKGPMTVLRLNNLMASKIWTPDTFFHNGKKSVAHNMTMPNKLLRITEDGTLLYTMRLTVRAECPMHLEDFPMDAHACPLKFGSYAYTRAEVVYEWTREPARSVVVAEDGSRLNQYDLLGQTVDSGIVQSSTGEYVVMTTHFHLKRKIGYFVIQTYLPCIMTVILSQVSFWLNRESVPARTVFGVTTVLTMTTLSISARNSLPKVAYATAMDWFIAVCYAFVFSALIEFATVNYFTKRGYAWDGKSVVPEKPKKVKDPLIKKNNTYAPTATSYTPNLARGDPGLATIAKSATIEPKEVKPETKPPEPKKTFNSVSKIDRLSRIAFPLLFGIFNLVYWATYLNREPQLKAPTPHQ
UniProt P18507, 40-475 limits assumed: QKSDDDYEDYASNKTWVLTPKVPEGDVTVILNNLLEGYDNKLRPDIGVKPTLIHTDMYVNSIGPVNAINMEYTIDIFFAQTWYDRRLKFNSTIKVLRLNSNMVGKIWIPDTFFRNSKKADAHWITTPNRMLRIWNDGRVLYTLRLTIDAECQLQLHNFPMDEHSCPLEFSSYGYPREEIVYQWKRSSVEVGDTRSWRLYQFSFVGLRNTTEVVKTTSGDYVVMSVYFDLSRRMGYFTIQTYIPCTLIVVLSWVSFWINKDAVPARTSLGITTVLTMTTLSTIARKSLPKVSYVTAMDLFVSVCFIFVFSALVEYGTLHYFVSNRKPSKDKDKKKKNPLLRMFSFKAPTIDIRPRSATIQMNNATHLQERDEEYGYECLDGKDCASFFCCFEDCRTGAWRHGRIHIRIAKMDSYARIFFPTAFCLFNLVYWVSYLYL
UniProt P28472, 26-473 limits assumed: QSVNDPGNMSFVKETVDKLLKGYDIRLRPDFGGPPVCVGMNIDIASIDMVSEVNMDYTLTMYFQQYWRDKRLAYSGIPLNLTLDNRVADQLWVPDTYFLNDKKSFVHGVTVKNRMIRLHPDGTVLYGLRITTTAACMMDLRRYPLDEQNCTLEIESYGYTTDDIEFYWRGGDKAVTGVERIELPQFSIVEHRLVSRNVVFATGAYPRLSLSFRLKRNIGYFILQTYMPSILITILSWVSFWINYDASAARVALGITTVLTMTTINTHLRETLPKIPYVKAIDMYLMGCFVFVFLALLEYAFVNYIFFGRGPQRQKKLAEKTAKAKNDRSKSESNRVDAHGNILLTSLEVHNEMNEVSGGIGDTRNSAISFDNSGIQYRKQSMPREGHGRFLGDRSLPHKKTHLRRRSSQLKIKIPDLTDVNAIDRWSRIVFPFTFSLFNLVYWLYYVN
UniProt P02708, 21-457 limits assumed: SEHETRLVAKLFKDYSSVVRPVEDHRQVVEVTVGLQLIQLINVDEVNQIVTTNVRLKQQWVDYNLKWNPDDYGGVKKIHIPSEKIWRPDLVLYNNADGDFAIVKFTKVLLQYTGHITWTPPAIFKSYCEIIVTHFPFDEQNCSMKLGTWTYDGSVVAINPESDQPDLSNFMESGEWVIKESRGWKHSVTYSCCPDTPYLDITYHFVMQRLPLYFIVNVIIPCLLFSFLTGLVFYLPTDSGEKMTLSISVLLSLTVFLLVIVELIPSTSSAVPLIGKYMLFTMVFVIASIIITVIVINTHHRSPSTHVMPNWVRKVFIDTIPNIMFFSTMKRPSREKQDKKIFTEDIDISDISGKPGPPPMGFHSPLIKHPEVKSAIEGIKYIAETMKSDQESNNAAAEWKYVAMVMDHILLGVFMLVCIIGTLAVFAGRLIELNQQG
UniProt Q04844, 21-493 limits assumed: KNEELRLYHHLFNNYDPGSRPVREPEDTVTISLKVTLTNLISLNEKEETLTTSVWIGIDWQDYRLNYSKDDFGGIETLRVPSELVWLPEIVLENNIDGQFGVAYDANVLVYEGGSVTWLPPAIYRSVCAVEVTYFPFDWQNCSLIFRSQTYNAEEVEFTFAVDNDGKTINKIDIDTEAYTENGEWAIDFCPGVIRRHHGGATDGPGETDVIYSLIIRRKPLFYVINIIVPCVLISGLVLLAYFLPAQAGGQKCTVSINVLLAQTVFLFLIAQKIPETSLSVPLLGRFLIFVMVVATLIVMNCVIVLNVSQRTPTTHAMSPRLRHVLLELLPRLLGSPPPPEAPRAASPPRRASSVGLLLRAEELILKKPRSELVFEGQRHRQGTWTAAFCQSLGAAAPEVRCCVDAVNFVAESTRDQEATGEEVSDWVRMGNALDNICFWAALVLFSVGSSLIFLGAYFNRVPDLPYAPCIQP
UniProt Q07001, 22-517 limits assumed: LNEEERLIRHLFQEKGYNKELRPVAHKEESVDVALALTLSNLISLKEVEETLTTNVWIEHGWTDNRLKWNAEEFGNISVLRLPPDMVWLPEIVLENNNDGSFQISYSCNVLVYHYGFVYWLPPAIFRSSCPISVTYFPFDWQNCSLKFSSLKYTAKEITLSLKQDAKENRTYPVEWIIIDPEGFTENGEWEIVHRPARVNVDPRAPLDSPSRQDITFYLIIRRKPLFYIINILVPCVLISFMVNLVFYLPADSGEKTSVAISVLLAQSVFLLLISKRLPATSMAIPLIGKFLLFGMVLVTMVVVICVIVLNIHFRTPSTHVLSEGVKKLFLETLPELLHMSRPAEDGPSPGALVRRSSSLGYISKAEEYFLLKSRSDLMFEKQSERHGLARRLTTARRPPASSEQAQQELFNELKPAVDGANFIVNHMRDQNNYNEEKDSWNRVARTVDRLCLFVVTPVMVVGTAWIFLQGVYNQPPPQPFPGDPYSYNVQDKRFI

| Structure (SMILES) | tested on | test | test system | setting | scale | quantity | result |
| --- | --- | --- | --- | --- | --- | --- | --- |
| CC(C)[C@H](NC(=O)CNC(=O)[C@H](CCC(=O)O)NC(=O)[C@@H](NC(=O)[C@H](CCC(=O)O)NC(=O)[C@H](CC(=O)O)NC(=O)CCNC(=O)Cc1cc(=O)oc2cc(N)ccc12)C(C)C)C(=O)N[C@@H](CCCCNc1ccc([N+](=O)[O-])cc1[N+](=O)[O-])C(=O)N[C@@H](CC(=O)O)C(N)=O | CASP3 | substrate |  | pH 7.2 |  | Km | 12800 nM |
| COP(=O)(OC)Oc1ccc([N+](=O)[O-])cc1Cl | Ache (Rattus norvegicus, UniProt P37136) | enzyme activity, inhibitor, discontinuous Ellman | rat, postnatal day 70, rat lung homogenate | 15 min, 37 °C |  | IC50 | 116 nM |
| COC(=O)[C@H]1[C@@H](OC(=O)c2ccccc2)C[C@@H]2CC[C@H]1N2C | Sigmar1 (Mus musculus, UniProt O55242) | radioligand binding, displacement | CD-1 mouse, whole brain | intraperitoneal, 100 µmol/kg, 30 min after radioligand |  | inhibition | 37% |
| CC(C)C[C@H](NC(=O)CNC(=O)[C@H](CCCNC(=N)N)NC(=O)[C@H](CCCCN)NC(=O)[C@H](CCCCN)NC(=O)[C@H](CCCNC(=N)N)NC(=O)[C@H](CCCNC(=N)N)NC(=O)[C@H](CCCNC(=N)N)NC(=O)[C@H](CCC(=O)O)NC(=O)[C@H](CCCNC(=N)N)NC(=O)c1ccccc1N)C(=O)N[C@@H](Cc1ccccc1)C(=O)NCC(=O)N[C@@H](CCC(N)=O)C(=O)NCCNc1ccc([N+](=O)[O-])cc1[N+](=O)[O-] | FURIN | substrate |  | pH 7 |  | Km | 100 nM |
| CC[C@H](C)[C@H](NC(=O)[C@H](C)NC(=O)[C@H](CCCNC(=N)N)NC(=O)[C@H](CCCNC(=N)N)NC(=O)[C@H](CO)NC(=O)[C@H](CCCNC(=N)N)NC(=O)CNC(=O)[C@H](CO)NC(=O)c1ccccc1N)C(=O)N[C@@H](CC(=O)O)C(=O)N[C@@H](CC(C)C)C(=O)N[C@@H](CCC(N)=O)C(=O)NCCNc1ccc([N+](=O)[O-])cc1[N+](=O)[O-] | FURIN | substrate |  | pH 7 |  | kcat | 4.7 s⁻¹ |
| N#Cc1c(-c2ccc(Cl)cc2Cl)n(-c2nc(-c3ccc(Cl)cc3)c3c(NC(=O)c4ccccc4)nnc-3[nH]2)[nH]c1=O | SNB-19 | SRB |  |  |  | CC50 | > 100 µM |
| CC(C)C[C@H](NC(=O)[C@H](Cc1ccccc1)NC(=O)CNC(=O)CNC(=O)[C@@H](N)Cc1ccc(O)cc1)C(=O)O | neuron-specific aminopeptidase, rat | substrate |  | MW 110 kDa |  | kcat | 3.24 s⁻¹ |
| CCOC(=O)c1cncn1C(C)c1cc(OC)cc(OC)c1 (stereo not shown) | GABA-A receptor; alpha-1/beta-3/gamma-2 (Homo sapiens, UniProt P14867+P18507+P28472) | GABA current potentiation, positive allosteric modulator, two-electrode voltage clamp | Xenopus oocytes | added: EC5 GABA | reference: 1 mM GABA response | maximal current | 11% |
| CC[C@H](C)[C@@H]1NC(=O)[C@H](CCC(=O)O)NC(=O)[C@@H]2CCCN2C(=O)[C@H](Cc2c[nH]cn2)NC(=O)[C@H](CCCNC(=N)N)NC(=O)[C@H](C(C)C)NC(=O)[C@H](CC(N)=O)NC(=O)[C@@H]2CSSC[C@H](NC(=O)CN)C(=O)N[C@@H](CSSC[C@@H](C(N)=O)NC1=O)C(=O)N[C@@H](CO)C(=O)N[C@@H](Cc1c[nH]cn1)C(=O)N1CCC[C@H]1C(=O)N[C@@H](C(C)C)C(=O)N2 | CHRNA1/Acetylcholine receptor subunit epsilon/Acetylcholine receptor subunit delta, with beta1 subunit (Homo sapiens, UniProt P02708+Q04844+Q07001) | ion current, antagonist |  | 10 µM | reference: untreated control | remaining ACh response | 93 ± 10% |
| CC(C)C[C@H](NC(=O)CNC(=O)[C@H](CCCNC(=N)N)NC(=O)[C@H](CCCCN)NC(=O)[C@H](CCCCN)NC(=O)[C@H](CCCNC(=N)N)NC(=O)[C@H](CCCNC(=N)N)NC(=O)[C@H](CCCNC(=N)N)NC(=O)c1ccccc1N)C(=O)N[C@@H](CO)C(=O)NCC(=O)N[C@@H](CCC(N)=O)C(=O)NCCNc1ccc([N+](=O)[O-])cc1[N+](=O)[O-] | FURIN | substrate |  | pH 7.0, 37 °C, added: KCl 20 mM |  | Km | 1000 nM |
| CC[C@H](C)[C@H](NC(=O)[C@H](C)NC(=O)[C@H](CCCNC(=N)N)NC(=O)[C@H](CCCNC(=N)N)NC(=O)[C@H](CO)NC(=O)[C@H](CCCNC(=N)N)NC(=O)CNC(=O)[C@H](CO)NC(=O)c1ccccc1N)C(=O)N[C@@H](CC(=O)O)C(=O)N[C@@H](CC(C)C)C(=O)N[C@@H](CCC(N)=O)C(=O)NCCNc1ccc([N+](=O)[O-])cc1[N+](=O)[O-] | FURIN | substrate |  | pH 7 |  | Km | 390 nM |
| CC(C)C[C@H](NC(=O)[C@H](CO)NC(=O)[C@H](CCCNC(=N)N)NC(=O)[C@H](CCCCN)NC(=O)[C@H](CCCCN)NC(=O)[C@H](CCCNC(=N)N)NC(=O)[C@H](CCCNC(=N)N)NC(=O)[C@H](CCCNC(=N)N)NC(=O)c1ccccc1N)C(=O)N[C@@H](Cc1ccccc1)C(=O)NCC(=O)N[C@@H](CCC(N)=O)C(=O)NCCNc1ccc([N+](=O)[O-])cc1[N+](=O)[O-] | FURIN | substrate |  | pH 7.0, 37 °C, added: KCl 20 mM |  | Km | 950 nM |
| CC(C)[C@H](NC(=O)CNC(=O)[C@H](CC(=O)O)NC(=O)[C@@H](NC(=O)[C@H](CCC(=O)O)NC(=O)[C@H](CC(=O)O)NC(=O)CCNC(=O)Cc1cc(=O)oc2cc(N)ccc12)C(C)C)C(=O)N[C@@H](CCCCNc1ccc([N+](=O)[O-])cc1[N+](=O)[O-])C(=O)N[C@@H](CC(=O)O)C(N)=O | CASP3 | substrate |  | pH 7.2 |  | Km | 6350 nM |
